Results from different studies.
Every numbered part comes from another study and shows a few of its results, in no order. Positions count from the first letter of the parent shown.

Sample 1
Target: ABI1, truncated, D143A, DHFR fusion (Arabidopsis thaliana, UniProt P49597)
Method: DHFR PCA, dose-response
Medium: yeast
Setting: Hill fit, mean, not affinity
Together with: (+)-ABA, dose series
Reading: lower = more sensitive
Measurement: ABA EC50
Starting sequence: PYL1, truncated, DHFR fusion (Arabidopsis thaliana, UniProt Q8VZS8); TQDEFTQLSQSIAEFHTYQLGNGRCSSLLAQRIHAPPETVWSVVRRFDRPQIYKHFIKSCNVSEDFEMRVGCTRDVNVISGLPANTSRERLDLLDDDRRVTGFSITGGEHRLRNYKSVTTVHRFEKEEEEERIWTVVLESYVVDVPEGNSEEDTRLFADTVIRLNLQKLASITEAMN
R123D: 4.59 µM
T1M: 1.54 µM
L28Y: 44.3 µM
R113K: 1.49 µM
T101C: 6.28 µM
K58L: 21.8 µM
G102S: 2.3 µM
R163Y: 74.7 µM

Sample 2
Target: Probable WRKY transcription factor 11, DNA-binding domain (WRKY11, Arabidopsis thaliana, UniProt Q9SV15, residues 228-325)
Method: DNA-protein interaction ELISA
Molecule type: double-stranded DNA, one strand shown
Medium: in vitro, bacterial lysate
Tested at: not given
Setting: whole dsDNA probe, crude lysate protein
Relative to: highest signal in screen
Reading: higher = stronger binding
Measurement: relative absorbance
Target sequence (chain): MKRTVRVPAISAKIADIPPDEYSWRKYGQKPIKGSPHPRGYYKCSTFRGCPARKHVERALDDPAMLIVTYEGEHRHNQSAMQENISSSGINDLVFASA
AAAAAAACTCAACTAGTGAACCACCAAAA: 16.7 % of maximum
AAAAAAAATCTTAGCTCTATCTCATCAAAA: 17.3 % of maximum
AAAAAAGTCTAAGGACTTATAGCTGTAAAA: 59.9 % of maximum
AAAAAAAACTCCCATACTACAACCGAAAAA: 13.3 % of maximum
AAAAAATTCCCAGCGTATCCGACCCGAAAA: 13.8 % of maximum
AAAAAATAAGTAACCGAACGAAACTCAAAA: 16.1 % of maximum
AAAAAAGTCTGCGTCCTACCCCATTCAAAA: 26.2 % of maximum
AAAAAATAAATCGCGGCTACTGCTTCAAAA: 13 % of maximum
AAAAAAGGTGAGGAAGTTGGGTATGGAAAA: 17.3 % of maximum
AAAAAATACGTCTACGTGGTTGTCGTAAAA: 18.2 % of maximum

Sample 3
Target: Sal-like protein 4, full length isoform B (SALL4, Homo sapiens, UniProt Q9UJQ4-2, residues 1-616)
Method: universal PBM
Molecule type: double-stranded DNA, one strand shown
Medium: in vitro
Tested at: not given
Setting: 8-mer, flanks averaged, mean of replicates
Reading: higher = stronger binding
Measurement: E-score
AAGTACCT: 0.0667
ATGGGTGA: -0.043
CGTGCCAC: -0.331
CATTCTCA: 0.108
CATAAGCA: 0.186
GATAGAAA: 0.0902

Further values, each from its own experiment
PhoQ, residues 284 288 289 292 302 303 SNGLAW
fold induction (PhoP, residues 12 14 15 18 19 NMSFL (Escherichia coli, UniProt P23836); Sort-seq, refers to: YFP reporter; E. coli; PhoQ-PhoP variant library, together with: 10 µM Mg2+; relative to: high Mg2+ state, higher = stronger signaling): 9.75
